Published values of several laboratories.
Compare with care: the assays were run in different laboratories.

Compound | cell line | test | conditions | scale | endpoint | value
Cc1cccc(-c2[nH]c(CNc3ccccc3F)nc2-c2ccc3ncnn3c2)n1 | bone marrow CD138+ myeloma cells | XTT | 1.8 µM, mean of three patients | – | viability | 7%
CCn1cc(-c2cc(Cn3ccnc3)cc3c2CCN([C@H](c2cc(OC)ccn2)C2CC2)C3=O)c(C(F)(F)F)n1 | HCC1588 | cell growth, inhibitor | 120 h | – | EC50 | 8.09 µM
CC(C)C[C@H](NC(=O)CNC(=O)c1cc(Cl)ccc1Cl)B1OC(=O)C(CC(=O)O)(CC(=O)O)O1 | BT-16 | cell viability, MTT | 10 µM, 72 h | – | inhibition | 95.1%
Cc1cc(Nc2ncc(Cl)c(Nc3ccccc3S(=O)(=O)C(C)C)n2)c(OC(C)C)cc1C1CCNCC1 | CLB-BAR | phosphoproteomics LC-MS/MS, measured: TNKS1BP1 phosphorylation | 200 nM, 60 min | reference: untreated | log2 fold change | -2.56
COc1cccc2c1C(=O)c1c(O)c3c(c(O)c1C2=O)C[C@@](O)(C(=O)CO)C[C@@H]3O[C@H]1C[C@H](N)[C@H](O)[C@H](C)O1 | BT-16 | cell viability, MTT | 10 µM, 72 h | – | inhibition | 88.7%
COc1cnc2cccc(N3CCc4c(cc(Cn5ccnc5C)cc4-c4cn(C)nc4C(F)(F)F)C3=O)c2c1 | LoVo | cell growth, inhibitor | 120 h | – | EC50 | > 30 µM
CCc1cnc(N2CCC(c3nc(COc4ccc(-n5cnnn5)cc4)cs3)CC2)nc1 | HEK-293T | RNA-seq GSEA, measured: HALLMARK_PROTEIN_SECRETION | concentration not given | direction not given | normalized enrichment score | 1.22
CC(C)NCC(O)c1ccc(O)c(O)c1 (stereo not shown) | mouse ventricular cardiomyocytes | – | dose not given, 0.123 s | – | sarcomere length | 1.63 µm
COC(=O)[C@]12CCC(C)(C)C[C@H]1[C@H]1C(=O)C=C3[C@@]4(C)C=C(C#N)C(=O)C(C)(C)[C@@H]4CC[C@@]3(C)[C@]1(C)CC2 | HepG2 | measured: phospholipidosis | 24 h, distribution mode 2 | – | point of departure | 0.155 µM
CC[C@]1(O)C[C@@H]2CN(CCc3c([nH]c4ccccc34)[C@@](C(=O)OC)(c3cc4c(cc3OC)N(C)[C@H]3[C@@](O)(C(=O)OC)[C@H](OC(C)=O)[C@]5(CC)C=CCN6CC[C@]43[C@@H]65)C2)C1 | BT-16 | cell viability, MTT | 10 µM, 72 h | – | inhibition | 87.9%
CC(=O)c1nn(-c2ccc(Cl)cc2)/c(=N/N=C(\C)c2ccc(NC(=O)c3ccc(C)cc3)cc2)s1 | HepG2 | – | 10 µM | – | toxicity | 97.5%
CCS(=O)(=O)Nc1ccc2c(c1)/C(=C(/Nc1ccc(CN3CCCCC3)cc1)c1ccccc1)C(=O)N2 | BT-16 | cell viability, MTT | 10 µM, 72 h | – | inhibition | 94%
Cn1cc(-c2ccc(-c3cncc(Cl)c3N3CCC4(CCNC4=O)CC3)cc2)cn1 | COLO 205 | microarray, measured: ASS1 | concentration not given, 2 h, gene set ASSY | reference: untreated cells | fold change in expression | 3.47
COc1cc(/C=C/C(=O)N2CCC=CC2=O)cc(OC)c1OC | BT-16 | cell viability, MTT | 10 µM, 72 h | – | inhibition | 92%
Cn1c(Nc2nc3ccc(C(F)(F)F)cc3s2)nc2cc(C(=O)NCCOCCO)ccc21 | SH-SY5Y | RNA-seq, measured: FLT1 mRNA | 5 µM, 5 h | reference: untreated cells | fold change | 3.85
O=C(CCCCCN1C(=O)c2cccc3cccc(c23)C1=O)NO | BT-16 | cell viability, MTT | 10 µM, 72 h | – | inhibition | 83.1%
CCn1cc(-c2cc(Cn3ccoc3=N)cc3c2CCN([C@@H](C)c2cc(OC)ccn2)C3=O)c(C(F)(F)F)n1 | JHH5 | cell growth | 120 h | – | EC50 | 0.952 µM
Oc1nc2nonc2cc1Nc1cccc(F)c1 | L6 | – | concentration not given | – | activity | inactive
O=C(/C=C/C=C/C=C/C1CCCCC1)NC1=C[C@@](O)(/C=C/C=C/C=C/C(=O)NC2=C(O)CCC2=O)[C@@H]2O[C@@H]2C1=O | RD | cell growth, CellTiter-Glo | 78 h | – | GI50 | 12.3 µM

For quick reference, copied from above:
Compound | cell line | test | conditions | scale | endpoint | value
CC(C)C[C@H](NC(=O)CNC(=O)c1cc(Cl)ccc1Cl)B1OC(=O)C(CC(=O)O)(CC(=O)O)O1 | BT-16 | cell viability, MTT | 10 µM, 72 h | – | inhibition | 95.1%
